# Measured values gathered from unrelated publications.
# Each line is one published result; not all experiments were run side by side. ± marks the error that the study gave.
# SMARCA4: SWI/SNF-related matrix-associated actin-dependent regulator of chromatin subfamily A member 4 (SMARCA4, Homo sapiens, UniProt P51532)
# Chain of UniProt P51532 (whole entry, looked up): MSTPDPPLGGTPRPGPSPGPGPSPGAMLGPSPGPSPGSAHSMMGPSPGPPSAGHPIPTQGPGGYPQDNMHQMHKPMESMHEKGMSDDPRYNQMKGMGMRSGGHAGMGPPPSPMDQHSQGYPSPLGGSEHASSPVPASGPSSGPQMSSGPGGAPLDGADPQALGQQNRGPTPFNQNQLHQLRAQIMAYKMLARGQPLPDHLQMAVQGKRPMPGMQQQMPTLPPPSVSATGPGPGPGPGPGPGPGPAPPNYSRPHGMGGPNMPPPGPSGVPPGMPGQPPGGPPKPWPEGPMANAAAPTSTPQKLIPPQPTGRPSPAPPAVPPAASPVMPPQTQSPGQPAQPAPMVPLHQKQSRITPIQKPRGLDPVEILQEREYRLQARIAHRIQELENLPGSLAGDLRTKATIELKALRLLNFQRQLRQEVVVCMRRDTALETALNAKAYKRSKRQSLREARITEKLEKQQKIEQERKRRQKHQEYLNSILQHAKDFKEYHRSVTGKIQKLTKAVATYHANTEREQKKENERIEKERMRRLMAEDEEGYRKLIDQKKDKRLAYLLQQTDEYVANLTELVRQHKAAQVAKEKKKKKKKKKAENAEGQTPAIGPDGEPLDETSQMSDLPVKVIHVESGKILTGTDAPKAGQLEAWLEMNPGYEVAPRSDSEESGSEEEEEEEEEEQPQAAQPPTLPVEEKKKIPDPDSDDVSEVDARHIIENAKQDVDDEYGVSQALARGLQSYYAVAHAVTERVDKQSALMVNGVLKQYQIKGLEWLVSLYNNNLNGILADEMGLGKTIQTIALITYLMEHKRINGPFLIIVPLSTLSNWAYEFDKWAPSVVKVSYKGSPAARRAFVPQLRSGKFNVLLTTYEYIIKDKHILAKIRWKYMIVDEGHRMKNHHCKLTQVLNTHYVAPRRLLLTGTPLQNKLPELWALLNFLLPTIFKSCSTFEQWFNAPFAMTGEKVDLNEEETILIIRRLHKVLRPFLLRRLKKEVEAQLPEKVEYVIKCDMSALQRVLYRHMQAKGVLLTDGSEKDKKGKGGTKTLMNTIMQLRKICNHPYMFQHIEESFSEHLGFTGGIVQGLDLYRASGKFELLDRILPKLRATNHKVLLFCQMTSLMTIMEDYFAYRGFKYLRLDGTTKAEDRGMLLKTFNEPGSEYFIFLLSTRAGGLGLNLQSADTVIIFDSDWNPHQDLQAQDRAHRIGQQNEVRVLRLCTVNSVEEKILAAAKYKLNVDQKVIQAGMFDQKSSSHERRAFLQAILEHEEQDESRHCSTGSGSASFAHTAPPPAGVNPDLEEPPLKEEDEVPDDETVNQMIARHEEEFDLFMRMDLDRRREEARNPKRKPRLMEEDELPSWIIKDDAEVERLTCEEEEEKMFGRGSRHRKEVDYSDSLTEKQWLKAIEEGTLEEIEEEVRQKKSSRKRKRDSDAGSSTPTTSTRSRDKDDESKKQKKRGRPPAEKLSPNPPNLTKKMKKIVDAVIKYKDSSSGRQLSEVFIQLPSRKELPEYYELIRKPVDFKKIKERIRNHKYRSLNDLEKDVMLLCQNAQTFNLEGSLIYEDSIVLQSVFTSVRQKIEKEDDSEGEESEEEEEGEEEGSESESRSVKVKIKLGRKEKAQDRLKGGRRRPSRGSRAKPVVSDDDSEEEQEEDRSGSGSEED
# USP3 ZnF-UBD domain: Ubiquitin carboxyl-terminal hydrolase 3, ZnF-UBD domain (USP3, Homo sapiens, UniProt Q9Y6I4)
# Chain of UniProt Q9Y6I4 (whole entry, looked up): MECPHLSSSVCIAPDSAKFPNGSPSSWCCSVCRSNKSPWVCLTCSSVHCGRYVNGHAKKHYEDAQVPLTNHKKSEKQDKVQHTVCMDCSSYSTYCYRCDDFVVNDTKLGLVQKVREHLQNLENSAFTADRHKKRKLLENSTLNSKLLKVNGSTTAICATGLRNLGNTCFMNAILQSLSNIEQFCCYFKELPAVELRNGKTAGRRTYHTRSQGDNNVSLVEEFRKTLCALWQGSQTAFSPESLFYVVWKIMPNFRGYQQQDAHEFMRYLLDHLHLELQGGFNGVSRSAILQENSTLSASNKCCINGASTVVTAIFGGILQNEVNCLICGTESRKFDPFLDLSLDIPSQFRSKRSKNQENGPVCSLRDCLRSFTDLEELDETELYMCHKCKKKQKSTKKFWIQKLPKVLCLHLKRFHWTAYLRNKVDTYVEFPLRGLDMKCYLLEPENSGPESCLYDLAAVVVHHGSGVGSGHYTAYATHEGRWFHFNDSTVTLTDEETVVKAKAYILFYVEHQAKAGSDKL
# uncharacterized protein: uncharacterized protein (Bos taurus, UniProt E1BM68)
# Ppara F272I: Peroxisome proliferator-activated receptor alpha (Ppara, Mus musculus, UniProt P23204, F272I)
# Chain of UniProt P23204 (whole entry, unmodified, looked up): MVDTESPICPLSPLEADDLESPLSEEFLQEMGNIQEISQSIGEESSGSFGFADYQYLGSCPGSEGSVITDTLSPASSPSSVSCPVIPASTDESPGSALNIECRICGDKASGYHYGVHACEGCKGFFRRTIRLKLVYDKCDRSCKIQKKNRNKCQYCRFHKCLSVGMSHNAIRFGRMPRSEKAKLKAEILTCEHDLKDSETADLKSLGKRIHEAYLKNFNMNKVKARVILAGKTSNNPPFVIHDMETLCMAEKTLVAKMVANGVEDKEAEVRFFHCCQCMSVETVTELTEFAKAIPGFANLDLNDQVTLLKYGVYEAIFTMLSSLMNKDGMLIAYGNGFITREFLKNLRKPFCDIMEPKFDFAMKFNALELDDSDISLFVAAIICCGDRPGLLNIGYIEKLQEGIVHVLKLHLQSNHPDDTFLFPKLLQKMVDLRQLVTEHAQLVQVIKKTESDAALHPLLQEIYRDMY
# Chain of UniProt P07195 (whole entry, looked up): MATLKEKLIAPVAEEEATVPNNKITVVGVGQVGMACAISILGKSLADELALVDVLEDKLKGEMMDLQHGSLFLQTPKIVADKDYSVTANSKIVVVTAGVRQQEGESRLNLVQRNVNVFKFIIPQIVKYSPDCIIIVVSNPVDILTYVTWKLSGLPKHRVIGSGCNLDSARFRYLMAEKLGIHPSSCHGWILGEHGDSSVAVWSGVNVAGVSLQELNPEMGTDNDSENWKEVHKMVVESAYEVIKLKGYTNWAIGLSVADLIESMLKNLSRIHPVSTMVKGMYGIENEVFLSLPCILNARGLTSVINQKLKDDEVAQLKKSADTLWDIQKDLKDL
# Chain of UniProt Q9LJE2 (whole entry, looked up): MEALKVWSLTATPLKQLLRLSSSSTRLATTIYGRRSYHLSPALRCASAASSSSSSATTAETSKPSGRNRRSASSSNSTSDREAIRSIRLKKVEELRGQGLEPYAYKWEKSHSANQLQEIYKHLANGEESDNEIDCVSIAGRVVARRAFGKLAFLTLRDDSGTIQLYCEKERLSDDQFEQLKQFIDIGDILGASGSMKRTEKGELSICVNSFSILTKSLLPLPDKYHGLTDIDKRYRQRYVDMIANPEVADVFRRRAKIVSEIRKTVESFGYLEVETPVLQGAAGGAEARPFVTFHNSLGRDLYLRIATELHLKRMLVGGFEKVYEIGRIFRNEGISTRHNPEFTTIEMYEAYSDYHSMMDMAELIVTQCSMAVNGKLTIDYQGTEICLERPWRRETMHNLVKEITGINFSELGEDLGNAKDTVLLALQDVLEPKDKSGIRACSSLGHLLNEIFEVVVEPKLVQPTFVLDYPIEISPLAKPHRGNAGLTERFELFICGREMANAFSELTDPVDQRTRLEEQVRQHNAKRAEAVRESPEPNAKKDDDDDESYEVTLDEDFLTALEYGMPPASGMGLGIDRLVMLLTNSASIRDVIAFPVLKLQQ
# Chain of UniProt P02769 (whole entry, looked up): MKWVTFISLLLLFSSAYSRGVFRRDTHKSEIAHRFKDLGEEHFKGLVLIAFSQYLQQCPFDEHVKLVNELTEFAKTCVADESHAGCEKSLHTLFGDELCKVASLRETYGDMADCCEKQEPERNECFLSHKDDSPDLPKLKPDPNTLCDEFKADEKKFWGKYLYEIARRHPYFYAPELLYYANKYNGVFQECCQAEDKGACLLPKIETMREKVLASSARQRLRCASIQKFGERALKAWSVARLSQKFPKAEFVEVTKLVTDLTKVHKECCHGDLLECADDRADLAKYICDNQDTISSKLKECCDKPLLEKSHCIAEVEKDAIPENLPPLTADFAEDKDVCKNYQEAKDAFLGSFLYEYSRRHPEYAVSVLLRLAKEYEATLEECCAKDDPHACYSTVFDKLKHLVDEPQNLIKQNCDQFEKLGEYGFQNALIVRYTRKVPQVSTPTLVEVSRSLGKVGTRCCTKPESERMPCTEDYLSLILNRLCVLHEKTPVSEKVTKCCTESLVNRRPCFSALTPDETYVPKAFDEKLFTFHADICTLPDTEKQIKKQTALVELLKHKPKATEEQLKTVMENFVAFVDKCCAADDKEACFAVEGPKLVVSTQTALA
# Chain of UniProt Q8N884 (whole entry, looked up): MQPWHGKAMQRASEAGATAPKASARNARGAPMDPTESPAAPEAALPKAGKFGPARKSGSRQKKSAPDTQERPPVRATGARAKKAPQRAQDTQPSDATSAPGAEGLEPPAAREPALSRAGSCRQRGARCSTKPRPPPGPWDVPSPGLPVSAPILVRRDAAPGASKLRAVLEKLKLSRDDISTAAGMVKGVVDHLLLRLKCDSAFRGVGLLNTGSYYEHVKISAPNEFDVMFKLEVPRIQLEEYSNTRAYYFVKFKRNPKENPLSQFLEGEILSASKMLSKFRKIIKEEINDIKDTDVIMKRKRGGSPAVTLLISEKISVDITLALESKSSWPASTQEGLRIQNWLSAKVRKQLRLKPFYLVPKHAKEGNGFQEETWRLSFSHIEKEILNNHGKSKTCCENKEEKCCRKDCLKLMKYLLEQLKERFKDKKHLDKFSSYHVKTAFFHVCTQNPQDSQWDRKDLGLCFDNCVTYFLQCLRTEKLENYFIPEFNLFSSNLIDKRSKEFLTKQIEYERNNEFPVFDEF
SMILES,tested on,test,system,conditions,how to read,endpoint,result
O=C(NCCN1CCCC1=O)c1ccc([C@H]2[C@@H](F)[C@@H](F)C[C@@H](F)[C@H]2F)cc1,,hepatocyte stability,cryopreserved human hepatocytes,1 µM,,hepatic clearance,6.2 mL/min/kg
Cc1ncsc1-c1ccc([C@H](C)NC(=O)[C@@H]2C[C@@H](O)CN2C(=O)[C@@H](NC(=O)CN2CCN(c3cc(-c4ccccc4O)nnc3N)CC2)C(C)(C)C)cc1,SMARCA4,"degrader, immunofluorescence",SW1573,,,DC50,10.5 nM
Cc1ncsc1-c1ccc(CNC(=O)[C@@H]2C[C@@H](O)CN2C(=O)[C@@H](NC(=O)CCCCCCCCCCCC(=O)NCCCCC#Cc2cccc(-c3nn(-c4nc(C(=O)O)cs4)c(CC4CC4)c3Cc3ccc(S(N)(=O)=O)cc3)c2)C(C)(C)C)cc1,"L-lactate dehydrogenase B chain (LDHB, Homo sapiens, UniProt P07195)","degrader, western blot",PANC-1,48 h,,DC50,74 ± 6.9 nM
CCOc1c([C@H](C)n2nc(C)c3c(N)ncnc32)cc(Cl)c(F)c1[C@@H]1CNC(=O)C1,,,human B-cell malignancy patients,"oral, all doses, baseline below threshold",,observations with QRS >110 ms,1.5%
Nc1nsc(C(=O)NCc2c(F)cccc2Cl)c1Cl,"Lysine--tRNA ligase, chloroplastic/mitochondrial (OVA5, Arabidopsis thaliana, UniProt Q9LJE2)","enzyme activity, inhibitor",,,,IC50,> 100 µM
O=C(O)CCC(=O)Nc1ccccc1,USP3 ZnF-UBD domain,,,,,Kd,> 1 mM
Cc1ncsc1-c1ccc(CNC(=O)[C@@H]2C[C@@H](O)CN2C(=O)[C@@H](NC(=O)C2(F)CC2)C(C)(C)C)c(OCCOc2ccc(CN3CCN(c4cc(-c5ccccc5O)nnc4N)CC3)cc2)c1,SMARCA4,"degrader, immunofluorescence",SW1573,,,DC50,13.1 nM
O=C(O)CCc1nccs1,USP3 ZnF-UBD domain,,,,,Kd,0.173 mM
CC[C@@H]1[C@H](F)C(=O)N[C@@H]1COc1nccc2cc(C(N)=O)c(OC)cc12,"Phosphatidylinositol 4,5-bisphosphate 3-kinase catalytic subunit beta isoform (PIK3CB, Homo sapiens, UniProt P42338)","ATP probe binding, KiNativ profiling, measured: ATP probe site",THP-1 cell lysate,,,IC50,> 5 µM
CCc1nccnc1C,uncharacterized protein,"cAMP level, agonist, cAMP luminescence",HEK293 cells,,,EC50,315 ± 18.4 µM
CC/C=C\C/C=C\C/C=C\C/C=C\C/C=C\C/C=C\CCC(=O)SCCNC(=O)CCNC(=O)[C@H](O)C(C)(C)COP(=O)(O)OP(=O)(O)OC[C@H]1O[C@@H](n2cnc3c(N)ncnc32)[C@H](O)[C@@H]1OP(=O)(O)O,Ppara F272I,,,,,Ki,29 ± 3 nM
O=C(O)COc1cnc2ccccc2n1,USP3 ZnF-UBD domain,,,,,Kd,> 1 mM
CCc1ncc(C)nc1CC,"Olfactory receptor (Mus musculus, UniProt Q8VGQ8)","cAMP, agonist",HEK293 transfected with Olfactory receptor,,,EC50,270 ± 55.2 µM
O=C(O)CCC(=O)Nc1cccc2ccccc12,USP3 ZnF-UBD domain,,,,,Kd,> 1 mM
Cc1ccc([C@H]2C[C@@H]2COc2cc(NCc3nnc(C)s3)nc(C)n2)nc1,"cGMP-specific 3',5'-cyclic phosphodiesterase (PDE5A, Homo sapiens, UniProt O76074)","enzyme activity, inhibitor, IMAP fluorescence polarization",,with: cGMP,,Ki,46800 nM
CCCCCC/C=C\CCCCCCCC(=O)SCCNC(=O)CCNC(=O)[C@H](O)C(C)(C)COP(=O)(O)OP(=O)(O)OC[C@H]1O[C@@H](n2cnc3c(N)ncnc32)[C@H](O)[C@@H]1OP(=O)(O)O,Ppara F272I,,,,,Ki,28 ± 3 nM
O=C(O)Cc1nc2ccccc2o1,USP3 ZnF-UBD domain,,,,,Kd,> 1 mM
CCCCCCCCCCCCCCCCCCc1ccc(O)cc1,"Albumin (ALB, Bos taurus, UniProt P02769)",modified Stern–Volmer,PBS,27 °C,,Kb,16.2 mM
O=C(O)CCn1ccccc1=O,USP3 ZnF-UBD domain,,,,,Kd,> 1 mM
Cc1nn(-c2nc3ccccc3[nH]2)c(O)c1C(c1ccccn1)c1c(C)nn(-c2nc3ccccc3[nH]2)c1O,"Cyclic GMP-AMP synthase, catalytic domain; with DNA (CGAS, Homo sapiens, UniProt Q8N884)","cGAS-DNA phase separation, inhibitor",,,,EC50,7.38 µM
COc1nccnc1C(C)C,uncharacterized protein,"cAMP level, agonist, cAMP luminescence",HEK293 cells,,,EC50,171 ± 19.4 µM
Cn1cc(-c2ccc(-c3cncc(Cl)c3N3CCC4(CCNC4=O)CC3)cc2)cn1,COLO 205,"gene expression, microarray, measured: SQSTM1 mRNA",,"concentration not given, 2 h",relative to: untreated cells,log2 fold change,2.44
COCCN(C)C(=O)c1ccc(C2CCCCC2)cc1,,hepatocyte stability,cryopreserved mouse hepatocytes,1 µM,,hepatic clearance,79 mL/min/kg
Nc1nnc(-c2ccccc2O)cc1N1CCN(Cc2ccc(OCCOCCNc3cccc4c3C(=O)N(C3CCC(=O)NC3=O)C4=O)c(F)c2)CC1 (stereo not shown),SMARCA4,"degrader, immunoblot",SMARCA4 wild-type lung cancer cells,"96 h, median of twelve cell lines",,DC50,> 10000 nM
CCC(C)c1nccnc1OC (stereo not shown),uncharacterized protein,"cAMP level, agonist, cAMP luminescence",HEK293 cells,,,EC50,172 ± 42.8 µM
NC(=O)[C@H]1CCCN1C(=O)CCC(=O)O,USP3 ZnF-UBD domain,,,,,Kd,0.165 mM
CC(=O)c1nccnc1C,uncharacterized protein,"cAMP level, agonist, cAMP luminescence",HEK293 cells,,,EC50,1270 ± 313 µM
CC(C)C[C@H](NC(=O)C[C@H](O)[C@H](CC(C)C)NC(=O)[C@H](Cc1c[nH]cn1)NC(=O)CNC(=O)[C@@H](NC(=O)[C@H](C)NC(=O)[C@H](Cc1c[nH]c2ccccc12)NC(=O)[C@H](CCC(N)=O)NC(=O)[C@@H](Cc1ccccc1)NC(=O)COCCOCCNC(=O)CCC(C(=O)O)N1CCN(CC(=O)O)CCN(CC(=O)O)CCN(CC(=O)O)CC1)C(C)C)C(N)=O (stereo partly shown) [lutetium-177 labelled],,,"female BALB/c nu/nu mice, spleen","intravenous, 100 pmol, 24 h, with: PA 300 µg",,tissue uptake,0.03 ± 0.01 %ID/g
